Results of several laboratories.
Parts stem from different laboratories: compare values within a part only.
Sequence of UniProt Q86Z02 (whole entry, looked up): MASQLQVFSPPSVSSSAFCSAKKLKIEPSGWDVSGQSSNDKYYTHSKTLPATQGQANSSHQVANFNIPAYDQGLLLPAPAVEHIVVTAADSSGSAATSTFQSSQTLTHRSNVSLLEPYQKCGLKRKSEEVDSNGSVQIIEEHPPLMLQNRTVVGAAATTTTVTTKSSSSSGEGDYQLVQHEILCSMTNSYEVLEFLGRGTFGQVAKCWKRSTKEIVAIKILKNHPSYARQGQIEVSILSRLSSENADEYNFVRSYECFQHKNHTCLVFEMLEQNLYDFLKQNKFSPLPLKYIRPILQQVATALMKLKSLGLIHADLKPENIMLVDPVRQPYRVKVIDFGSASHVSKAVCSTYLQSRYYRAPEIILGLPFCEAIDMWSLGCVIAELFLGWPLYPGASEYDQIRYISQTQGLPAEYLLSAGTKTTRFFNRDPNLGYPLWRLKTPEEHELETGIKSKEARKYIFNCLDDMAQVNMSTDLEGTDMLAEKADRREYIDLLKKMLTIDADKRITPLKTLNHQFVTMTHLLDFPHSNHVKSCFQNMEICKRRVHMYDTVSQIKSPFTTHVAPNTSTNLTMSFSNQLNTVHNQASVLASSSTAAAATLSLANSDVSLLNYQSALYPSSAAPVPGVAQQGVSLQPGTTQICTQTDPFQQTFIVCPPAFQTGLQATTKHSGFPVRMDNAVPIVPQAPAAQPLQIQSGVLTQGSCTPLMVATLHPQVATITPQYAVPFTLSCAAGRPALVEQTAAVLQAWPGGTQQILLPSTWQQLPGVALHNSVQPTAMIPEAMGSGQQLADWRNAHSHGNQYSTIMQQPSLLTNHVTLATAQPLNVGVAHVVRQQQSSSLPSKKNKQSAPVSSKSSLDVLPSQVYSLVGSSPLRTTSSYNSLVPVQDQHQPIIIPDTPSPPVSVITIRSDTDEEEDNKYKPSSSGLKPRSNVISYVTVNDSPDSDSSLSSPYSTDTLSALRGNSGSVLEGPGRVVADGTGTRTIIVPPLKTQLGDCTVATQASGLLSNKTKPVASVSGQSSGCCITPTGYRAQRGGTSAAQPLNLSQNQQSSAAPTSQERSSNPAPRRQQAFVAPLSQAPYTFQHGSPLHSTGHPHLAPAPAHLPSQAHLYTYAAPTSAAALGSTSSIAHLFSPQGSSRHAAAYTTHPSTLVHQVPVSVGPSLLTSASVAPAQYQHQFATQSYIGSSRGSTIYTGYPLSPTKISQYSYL
Sequence of UniProt P49759 (whole entry, looked up): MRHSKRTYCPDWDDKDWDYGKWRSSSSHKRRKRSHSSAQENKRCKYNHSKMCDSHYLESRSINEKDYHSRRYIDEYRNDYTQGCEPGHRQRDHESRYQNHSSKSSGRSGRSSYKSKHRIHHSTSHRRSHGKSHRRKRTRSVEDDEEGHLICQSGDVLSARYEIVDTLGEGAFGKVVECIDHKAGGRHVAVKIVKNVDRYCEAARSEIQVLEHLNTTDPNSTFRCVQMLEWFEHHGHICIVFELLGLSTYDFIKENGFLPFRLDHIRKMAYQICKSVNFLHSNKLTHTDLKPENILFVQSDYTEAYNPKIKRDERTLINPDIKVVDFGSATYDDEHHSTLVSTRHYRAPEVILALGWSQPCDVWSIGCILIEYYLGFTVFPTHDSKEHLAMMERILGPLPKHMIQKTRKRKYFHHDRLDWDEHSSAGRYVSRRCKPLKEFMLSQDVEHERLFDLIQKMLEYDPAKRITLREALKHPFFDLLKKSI
Sequence of UniProt Q9NRM7 (whole entry, looked up): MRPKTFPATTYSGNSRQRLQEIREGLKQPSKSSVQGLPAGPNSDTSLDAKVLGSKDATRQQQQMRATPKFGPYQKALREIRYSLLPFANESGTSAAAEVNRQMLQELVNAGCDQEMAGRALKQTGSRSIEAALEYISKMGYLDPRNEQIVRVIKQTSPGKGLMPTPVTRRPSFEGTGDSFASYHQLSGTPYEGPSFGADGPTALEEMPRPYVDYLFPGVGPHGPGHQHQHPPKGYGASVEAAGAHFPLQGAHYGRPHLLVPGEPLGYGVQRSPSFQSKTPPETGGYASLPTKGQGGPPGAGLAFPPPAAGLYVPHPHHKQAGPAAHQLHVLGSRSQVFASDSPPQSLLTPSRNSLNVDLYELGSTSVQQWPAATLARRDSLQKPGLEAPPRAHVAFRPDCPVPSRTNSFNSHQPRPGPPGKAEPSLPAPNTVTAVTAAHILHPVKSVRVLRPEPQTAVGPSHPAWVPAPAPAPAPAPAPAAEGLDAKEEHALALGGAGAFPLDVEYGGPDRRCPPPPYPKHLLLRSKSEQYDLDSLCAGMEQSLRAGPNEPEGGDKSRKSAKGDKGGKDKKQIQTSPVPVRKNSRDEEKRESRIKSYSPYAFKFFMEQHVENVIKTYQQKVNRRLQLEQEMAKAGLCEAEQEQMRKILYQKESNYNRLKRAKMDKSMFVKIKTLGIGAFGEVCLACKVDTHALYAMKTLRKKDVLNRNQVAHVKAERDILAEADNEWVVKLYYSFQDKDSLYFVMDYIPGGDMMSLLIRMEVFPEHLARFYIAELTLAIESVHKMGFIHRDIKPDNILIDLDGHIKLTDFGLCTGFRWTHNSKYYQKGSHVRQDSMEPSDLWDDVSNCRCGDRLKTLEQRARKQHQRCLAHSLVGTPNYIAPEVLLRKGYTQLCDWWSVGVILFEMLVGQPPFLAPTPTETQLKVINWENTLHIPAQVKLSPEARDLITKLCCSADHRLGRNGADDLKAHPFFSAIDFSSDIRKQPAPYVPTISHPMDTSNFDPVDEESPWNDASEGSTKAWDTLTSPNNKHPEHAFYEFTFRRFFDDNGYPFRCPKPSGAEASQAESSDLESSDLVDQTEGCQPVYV
Sequence of UniProt P21802 (whole entry, looked up): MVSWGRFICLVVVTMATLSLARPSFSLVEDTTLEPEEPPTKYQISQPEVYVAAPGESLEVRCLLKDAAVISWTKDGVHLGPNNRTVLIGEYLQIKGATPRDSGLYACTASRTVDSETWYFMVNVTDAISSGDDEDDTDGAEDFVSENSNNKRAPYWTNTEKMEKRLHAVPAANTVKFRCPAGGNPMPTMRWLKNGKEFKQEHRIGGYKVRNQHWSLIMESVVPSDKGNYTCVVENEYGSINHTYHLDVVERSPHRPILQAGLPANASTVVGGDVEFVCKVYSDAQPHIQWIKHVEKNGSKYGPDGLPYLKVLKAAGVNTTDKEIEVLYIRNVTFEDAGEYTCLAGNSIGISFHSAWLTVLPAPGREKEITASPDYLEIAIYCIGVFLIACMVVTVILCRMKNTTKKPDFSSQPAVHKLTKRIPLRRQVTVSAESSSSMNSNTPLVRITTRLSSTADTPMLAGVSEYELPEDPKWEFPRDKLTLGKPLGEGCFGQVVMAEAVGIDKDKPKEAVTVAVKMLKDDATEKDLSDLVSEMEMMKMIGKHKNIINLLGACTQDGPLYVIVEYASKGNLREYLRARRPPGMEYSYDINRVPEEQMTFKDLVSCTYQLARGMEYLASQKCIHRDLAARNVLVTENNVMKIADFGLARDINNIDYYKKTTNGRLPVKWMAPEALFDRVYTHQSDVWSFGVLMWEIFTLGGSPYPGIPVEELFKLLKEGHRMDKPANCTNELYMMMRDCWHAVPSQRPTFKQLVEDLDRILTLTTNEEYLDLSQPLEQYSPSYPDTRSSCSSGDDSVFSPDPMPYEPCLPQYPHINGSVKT
Sequence of UniProt Q96BR1 (whole entry, looked up): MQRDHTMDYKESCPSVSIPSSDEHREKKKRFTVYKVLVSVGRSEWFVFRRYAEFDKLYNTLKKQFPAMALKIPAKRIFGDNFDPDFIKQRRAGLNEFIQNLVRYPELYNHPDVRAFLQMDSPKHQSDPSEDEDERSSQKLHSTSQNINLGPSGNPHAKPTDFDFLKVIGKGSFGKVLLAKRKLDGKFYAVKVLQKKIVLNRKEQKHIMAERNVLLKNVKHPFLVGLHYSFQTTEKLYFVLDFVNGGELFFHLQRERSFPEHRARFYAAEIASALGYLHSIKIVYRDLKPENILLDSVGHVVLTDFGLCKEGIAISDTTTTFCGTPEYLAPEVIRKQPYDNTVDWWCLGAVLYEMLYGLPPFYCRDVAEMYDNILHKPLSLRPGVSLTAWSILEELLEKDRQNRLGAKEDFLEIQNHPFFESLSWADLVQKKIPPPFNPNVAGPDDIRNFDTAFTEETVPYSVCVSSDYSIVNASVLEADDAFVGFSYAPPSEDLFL

Set 1
Target: Prothrombin, mature alpha-thrombin (F2, Homo sapiens, UniProt P00734)
Technique: aptamer microarray, sandwich
Form: DNA with 2'F-ANA
Medium: in vitro
Tested at: 200 nM
Notes: whole 15-mer aptamer, many near background
With: Cy3 exosite-II aptamer, 400 nM
Reading: higher = stronger binding
Measurement: mean fluorescence intensity
Strand: GGTTGGTGTGGTTGG
2'F-ANA at 6 10 15: 158 a.u.
2'F-ANA at 1 2 3 6 7 8 11 12 14: 85.4 a.u.
2'F-ANA at 1 3 8 9 12 13 14 15: 107 a.u.
2'F-ANA at 2 3 4 5 6 7 8 12 13 14 15: 60 a.u.
2'F-ANA at 2 4 8 9 11 12 13: 344 a.u.
2'F-ANA at 2 3 4 6 10 12: 284 a.u.
2'F-ANA at 4 7 9 11 12 13 15: 298 a.u.
2'F-ANA at 2 3 4 5 6 11 12 15: 131 a.u.

Set 2
Compound: CC(=O)Nc1c(C(C)=O)c(=O)n(C)c2nc(-c3ccc(Cl)cc3Cl)c(-c3ccc(Cl)cc3)cc12
Observed: cell-free assay
Technique: competition with immobilised ligand
Tested at: 1 µM
Measurement: remaining binding
Mast/stem cell growth factor receptor Kit (KIT, Homo sapiens, UniProt P10721, D816V): 100%
Activated CDC42 kinase 1 (TNK2, Homo sapiens, UniProt Q07912): 100%
Serine/threonine-protein kinase Nek10 (NEK10, Homo sapiens, UniProt Q6ZWH5): 100%
Homeodomain-interacting protein kinase 1 (HIPK1, Homo sapiens, UniProt Q86Z02): 99%
Serine/threonine-protein kinase Sgk3 (SGK3, Homo sapiens, UniProt Q96BR1): 100%
Serine/threonine-protein kinase LATS2 (LATS2, Homo sapiens, UniProt Q9NRM7): 100%
1-phosphatidylinositol 3-phosphate 5-kinase (PIKFYVE, Homo sapiens, UniProt Q9Y2I7): 100%
Phosphatidylinositol 4,5-bisphosphate 3-kinase catalytic subunit delta isoform (PIK3CD, Homo sapiens, UniProt O00329): 100%
Receptor-interacting serine/threonine-protein kinase 1 (RIPK1, Homo sapiens, UniProt Q13546): 100%
Fibroblast growth factor receptor 2 (FGFR2, Homo sapiens, UniProt P21802): 100%
RAF proto-oncogene serine/threonine-protein kinase (RAF1, Homo sapiens, UniProt P04049): 100%
Receptor tyrosine-protein kinase erbB-3 (ERBB3, Homo sapiens, UniProt P21860): 100%
Serine/threonine-protein kinase PLK2 (PLK2, Homo sapiens, UniProt Q9NYY3): 100%
Ribosomal protein S6 kinase alpha-2, C-terminal kinase domain (RPS6KA2, Homo sapiens, UniProt Q15349): 100%
Dual specificity protein kinase CLK1 (CLK1, Homo sapiens, UniProt P49759): 100%

Set 3
Target: Ras GTPase-activating protein-binding protein 1, full length (G3BP1, Homo sapiens, UniProt Q13283)
Sequence of UniProt Q13283 (whole entry, looked up): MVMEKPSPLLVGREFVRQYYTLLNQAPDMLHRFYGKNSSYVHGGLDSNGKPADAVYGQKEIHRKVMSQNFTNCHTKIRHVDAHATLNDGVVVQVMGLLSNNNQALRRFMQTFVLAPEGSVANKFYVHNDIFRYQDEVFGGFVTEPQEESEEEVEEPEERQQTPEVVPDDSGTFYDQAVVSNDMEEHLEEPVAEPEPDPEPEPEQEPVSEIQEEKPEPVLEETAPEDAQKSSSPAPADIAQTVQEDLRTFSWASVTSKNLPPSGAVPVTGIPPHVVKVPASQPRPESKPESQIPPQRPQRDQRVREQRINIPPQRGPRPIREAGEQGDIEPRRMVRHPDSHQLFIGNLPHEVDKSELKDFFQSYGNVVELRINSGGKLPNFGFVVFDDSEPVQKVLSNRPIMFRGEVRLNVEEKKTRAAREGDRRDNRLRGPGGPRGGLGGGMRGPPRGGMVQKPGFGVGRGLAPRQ
Technique: RNA Bind-n-Seq
Form: RNA
Medium: in vitro
Tested at: 200 nM
Notes: whole 134-nt RNA, ends assumed
With: 150 mM KCl
Reference: input library
Reading: higher = stronger binding
Measurement: log2 enrichment
Constant ends, left off below: GGGAGUUCUACAGUCCGACGAUC … UGGAAUUCUCGGGUGUCAAGG
UGGCCCUGGUGGCAUGCGGGGAGGAAGAGGUGGCCUCAUGGAUCGUGGUGGUCCCGGUGGAAUGUUCAGAGUUGGCCGUGGUGGAGACAG: 0.201
AGUCCUGUGCUACACAUCGUAUGUACCGAAUCGGGGUUUUGGGGUUUUGGUUUUGGGGAAAGUAUUAUGUUACGCCGUUCGGAUCUGCAC: -0.246
AGUCCUGUGCUACACAUCGUAUGUACCGAAUCGGAAAAGGGGAAAAGGGGAAAAGGGAAAGUAUUAUGUUACGCCGUUCGGAUCUGCACU: -0.137
CUCAAGUCCUGUGCUACACAUCGUAUGUACCGAAUCGGGGUGGGGUGGGUGGGAAAGUAUUAUGUUACGCCGUUCGGAUCUGCACUUCCA: 1.6
UGCCAAAGUAUGGCAAGAAAUUGCUCCUGGAAAUACUGAUGCCACCCCAGUAACUCAUGGAACUGAAAGCUCUUGGCAUGAAAUAGCAGC: 0.758
CACAGACAACACGCACCCACACAGACACAGAGGGAAGGGGUUGGGAUGGGGACAGGGUAAACAGCAGGGCGGGGUAGGACCCCAGCCCCU: 1.8
UACAGGAGCUUCCUGGGACUGACCUGCCUGAUGCAAAUUUCUACUCGGACGGAAGACUUCAUCAUUGACACCCUCGAGCUUCGAAGUGAC: 0.288
ACCACGCAGGUGGGCAUCUUUGGGAAGUGGGGCAAGGGGGGGAUAGGGAGGGGGGUAACACUUUGGGAACAGGUGGUCCCAGGUCGUUUC: 1.08

Single results of other studies
CC(C)n1cnc(-c2ccc(F)cc2)c1-c1ncc(C(=O)Nc2ccc(N3CCN(C)CC3)cc2)[nH]1
patients with decreased appetite (phase 2a trial; idiopathic pulmonary fibrosis patients; 30 mg once daily, adverse event grade 5): 0%

Repeated from above (set 3):
CUCAAGUCCUGUGCUACACAUCGUAUGUACCGAAUCGGGGUGGGGUGGGUGGGAAAGUAUUAUGUUACGCCGUUCGGAUCUGCACUUCCA: 1.6
UGCCAAAGUAUGGCAAGAAAUUGCUCCUGGAAAUACUGAUGCCACCCCAGUAACUCAUGGAACUGAAAGCUCUUGGCAUGAAAUAGCAGC: 0.758
